Results gathered from unrelated publications.
Every numbered part comes from another study and shows a few of its results, in no order. Changes are numbered by the printed parent chain.

Series 1 — technique: RNA Bind-n-Seq; molecule type: RNA; sample: in vitro; tested at: 365 nM; relative to: no-protein control; direction: higher = stronger binding; measurement: RBNS enrichment (R)
Target: RNA binding protein fox-1 homolog 2, RRM domain, GST-SBP tag (RBFOX2, Homo sapiens, UniProt O43251-10, residues 100-194)
Setting: natural RNA segment, single round, ends assumed
Constant ends, left off below: GGGAGUUCUACAGUCCGACGAUC … UGGAAUUCUCGGGUGCCAA
Construct (chain): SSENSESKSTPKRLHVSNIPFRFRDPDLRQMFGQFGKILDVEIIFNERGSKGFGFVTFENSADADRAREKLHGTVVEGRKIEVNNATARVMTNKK
UGCCGCCUGACCGGGCGACCCUUUUCAGUUCGGCAAACGUCGCUCCCUUCAUUUUGGGACUGAGGCUGCAGCAUUGGAACAAAAGAGCAUUAUUUCAAUUUUUCUUUCUU: 0.357
CAGCUCUUGUGCCAAGGAGGAGUGGUUGUUGUUGUUUUGUUUUGAAGACUUAAACUCUGCACAAAGAUCCUGGUUCAGCUGUGUACUAUAGGUUGGUAGGAAGUGUCGUG: 3.22
UCUCAAGCAGCAGAAUCAGCCUACGCUCCCCAGCCUCAGUGCCCCUGCCCCACACAGGUCACGCUGGCAAGGCGAUGACCAGUUUCCGAAACGCUGGAUCCCCAAGGGUA: 0.322
CACAGUUUCCUGGGGAGGCCUGAGUACACACAGGCCUGUGUCAGGAGGAGGGUCAUGGCUCCAAAUCCGCUUGCCAGUCCCGCCCUCUCUCAGGUUCAGUGGGACUGCCA: 0.219
GGCUCGGAGCUUGAAGCUCUUUGAUCCUGAAGUUUGAAUUCCCCUCUGCCUCCCGGCCUGGGCUUGUUCUCAGGUCAGCCGCUGCUUUGUUCACUAUCAGUCUGGAGUGA: 0.419
AGCAGGGAUGUGGCAGAGAGAUCUGUGUGGAUCUGGCUUCCUGCUGCUGGGGCCUGGCUGGGCCCAAAGCUCCAAGCCUCACUGCCUUCCUGGGGUCCUAAUUAACUCGG: 0.294
CCUUCAGCGCUGCAGAGCAGUAAGCUAUCCAUCCAGUGAGUGUGGCGGCUCUUUCUACAGCUGAACUCCUCCUCAGUUGAGUUUUCAGUUUCUGGCUUGCUUCUCCCUUU: 0.508
AAAUGUAGAUGCUAUGCAUUUUGAAAAUAAUCUGCAUCAGUUAGAACUGCAGAAGUUUUUUUAAUGCCACUUUAACACUAAUGCACUGACAGAUUCUAAAUAUUUUGUGA: 1.19
GUACGUCCUGCAUGCACUAACGGUGCAGAACAUGGCAUGGUGACUAGAAAGUAAAACUCCUUUUGAAGUGUCCCAAGGACUGGGUCAGUUAGAACCUGUCUGCCACUAUC: 0.429
UUACUUUUCAUUGAAUUGAAAUUUAUUUUGGAUGAAUGACUGGCAUGAACACGUCUUUGAAGUUGUGGCUGAGAAGAUGAGAGGAAUAUUUAAAUAACAUCAACAGAACA: 6.5
UGGACUGCAAGGGAGUGGGCGGAUCUUCCUCUUAAACAGUAUUCUUAGAGUAGGAUUGACCUCAUGGGCUGCUCUGCCCACUUGGUCAGGCUCUCCUGAGCAGGACUGCU: 0.26
CUACCUGUCAAGGUUUGUGUUACCCUCCUGUAAAUGGUGUACAUAAUGUAUUGUUGGUAAUUAUUUUGGUACUUUUAUGAUGUAUAUUUAUUAAACAGAUUUUUACAAAU: 0.767

Series 2 — technique: DHFR PCA, deep sequencing; sample: yeast; with: (+)-ABA 0 µM; relative to: wild-type fitted maximum; direction: higher = stronger binding; measurement: relative binding score
Target: ABI1, truncated, D143A, DHFR fusion (Arabidopsis thaliana)
Setting: methotrexate growth selection, single substitutions
Starting sequence: PYL1, truncated, DHFR fusion (Arabidopsis thaliana); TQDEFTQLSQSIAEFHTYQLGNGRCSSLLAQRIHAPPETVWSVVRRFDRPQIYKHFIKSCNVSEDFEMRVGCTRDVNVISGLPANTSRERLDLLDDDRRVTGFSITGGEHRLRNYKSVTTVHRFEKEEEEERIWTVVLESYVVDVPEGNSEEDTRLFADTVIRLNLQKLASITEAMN
V70W: -1.1%
Y18P: 4.44%
R49N: 11%
K168C: 5.81%
F15E: 1.44%
V121K: -0.306%
T173M: -0.927%
E174A: 2.94%
E151V: 41.6%
L91A: 6.12%
T73C: 14.5%
H110E: 46%
D3I: 14%
A84N: 38.6%
T6Q: 39.9%

Series 3 — technique: protein binding microarray; molecule type: double-stranded DNA, one strand shown; sample: in vitro; tested at: not given; relative to: not given; direction: higher = stronger binding; measurement: E-score
Target: Histone acetyltransferase KAT6A, both winged helices, GST fusion (KAT6A, Homo sapiens, UniProt Q92794, residues 1-181)
Setting: 8-mer, flanks averaged, mean of 2 arrays, mostly near background
Construct (chain): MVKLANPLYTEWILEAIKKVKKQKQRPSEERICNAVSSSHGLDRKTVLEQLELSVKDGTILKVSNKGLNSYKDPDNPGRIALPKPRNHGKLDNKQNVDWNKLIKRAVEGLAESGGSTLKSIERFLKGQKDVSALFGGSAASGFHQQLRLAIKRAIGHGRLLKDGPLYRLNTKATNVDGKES
AGTCTTGC: -0.015
ACCTTTGA: -0.0562
GAAGACAC: 0.0481
GAGTCCTA: -0.159
GTTGCAAA: -0.0907
ACATGTAC: -0.0214
AGCCGGCA: 0.304
CACGTACA: -0.23
GCTGTCCC: -0.0789
CGCCCACA: 0.115
CGTTGGTC: -0.0464
GCGCATCC: 0.283
GTCATCTA: 0.00641
GGCAAGCC: -0.0269
GGAAGCAA: -0.0548
AGCTGTGC: -0.0949
GCACAAAA: 0.027
CTAAACCA: 0.0224
ATTGTGTA: -0.0368
ATCGAGGA: -0.12
GGAACCCA: -0.0215
ACCCCTAA: -0.217
GTAGTTCA: -0.114
CATTCCCG: 0.244
TAGACTAA: -0.109

Series 4 — target: CCND1, cyclin fold, Cln2 fusion (human); technique: yeast growth competition, sequencing; sample: yeast; setting: weak parent motif; relative to: not given; direction: higher = stronger binding; measurement: normalised enrichment score
Starting sequence: CDKN1B docking peptide (human); PSACRNLFGPVDH; partner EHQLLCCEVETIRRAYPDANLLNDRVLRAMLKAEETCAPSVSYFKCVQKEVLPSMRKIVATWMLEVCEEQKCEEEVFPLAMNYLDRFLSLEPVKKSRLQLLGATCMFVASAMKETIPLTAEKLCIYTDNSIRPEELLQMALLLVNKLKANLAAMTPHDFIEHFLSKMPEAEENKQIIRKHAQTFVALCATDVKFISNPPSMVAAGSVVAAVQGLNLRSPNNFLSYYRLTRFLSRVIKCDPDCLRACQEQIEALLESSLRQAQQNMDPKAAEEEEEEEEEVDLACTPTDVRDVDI
L7W: -0.205
H13A: 0.784
S2W: -0.142
P1N: 0.934
P1T: 1.49
R5A: 0.137
F8H: 0.572
G9S: 0.147
P1C: 0.317
P10L: 0.614
N6S: 0.105
G9P: 0.639
C4V: 0.291
C4F: 0.0149
P10C: 0.339
V11K: 0.447
A3D: 0.368

Series 5 — technique: universal PBM; molecule type: double-stranded DNA, one strand shown; sample: in vitro; tested at: 600 nM; direction: higher = stronger binding; measurement: E-score
Target: Sal-like protein 4, full length isoform A (SALL4, Homo sapiens, UniProt Q9UJQ4, residues 1-1053)
UniProt Q9UJQ4, sequence (whole entry, looked up): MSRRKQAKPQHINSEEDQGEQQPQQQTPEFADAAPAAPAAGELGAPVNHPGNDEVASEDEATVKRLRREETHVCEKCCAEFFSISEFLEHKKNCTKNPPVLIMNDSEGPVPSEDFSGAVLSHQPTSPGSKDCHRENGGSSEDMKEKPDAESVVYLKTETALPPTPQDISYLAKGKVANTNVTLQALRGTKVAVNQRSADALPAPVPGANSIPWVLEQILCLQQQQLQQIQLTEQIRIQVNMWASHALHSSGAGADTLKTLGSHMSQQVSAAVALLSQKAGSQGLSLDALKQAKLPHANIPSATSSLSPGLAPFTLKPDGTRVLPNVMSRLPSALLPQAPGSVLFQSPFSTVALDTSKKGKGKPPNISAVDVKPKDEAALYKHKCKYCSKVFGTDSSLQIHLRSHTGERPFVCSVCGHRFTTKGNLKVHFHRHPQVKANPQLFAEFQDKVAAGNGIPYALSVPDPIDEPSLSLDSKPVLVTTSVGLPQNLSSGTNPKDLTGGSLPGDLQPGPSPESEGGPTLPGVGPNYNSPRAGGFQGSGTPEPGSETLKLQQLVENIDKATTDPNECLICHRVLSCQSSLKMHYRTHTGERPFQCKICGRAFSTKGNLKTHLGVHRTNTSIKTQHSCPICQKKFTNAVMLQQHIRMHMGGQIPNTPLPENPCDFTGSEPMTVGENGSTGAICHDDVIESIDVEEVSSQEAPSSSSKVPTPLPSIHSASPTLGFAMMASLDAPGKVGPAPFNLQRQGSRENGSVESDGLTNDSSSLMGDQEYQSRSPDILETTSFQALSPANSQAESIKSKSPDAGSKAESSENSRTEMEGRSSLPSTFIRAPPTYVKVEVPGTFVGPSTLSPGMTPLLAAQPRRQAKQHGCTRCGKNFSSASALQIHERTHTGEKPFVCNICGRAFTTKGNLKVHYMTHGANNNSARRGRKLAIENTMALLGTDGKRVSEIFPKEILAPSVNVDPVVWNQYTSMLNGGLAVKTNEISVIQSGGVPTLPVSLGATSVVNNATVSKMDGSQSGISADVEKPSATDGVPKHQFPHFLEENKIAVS
Setting: 8-mer, flanks averaged, mean of replicates
AAGCCGAG: -0.315
CAAGCGAA: -0.0565
ACCTTGCC: -0.0655
CTAACGGC: -0.0793
CTATGGAG: 0.0504
CAGTGCCG: -0.275
CAATGGTC: 0.00965
TCACCGCA: -0.109
CTATCACA: 0.197
AAGACTCT: 0.11
CCATGTTC: -0.0827
ACCGTTGA: -0.0258
CACGTTCG: -0.0644
CCCATAAA: 0.122
AGTCGGAC: -0.167
AAGGAGTA: -0.0692
CACTGGTC: -0.237
AACGGGGG: -0.252
GATACCGC: 0.00323
CGCCTTAA: -0.119
ACCGAACG: -0.134
ACAGCTAG: -0.1
ATGCACTG: 0.0545
CGCTAGAC: -0.149
CTCGGGGC: -0.329

Series 6 — technique: RNAcompete; molecule type: RNA; sample: in vitro; tested at: 20 nM; setting: 7-mer, probes averaged, single round; relative to: mean of 7-mers; direction: higher = stronger binding; measurement: 7-mer Z-score
Target: PABPC1L2, full length, GST fusion (mouse, UniProt A0ABA7IW68)
Construct (chain): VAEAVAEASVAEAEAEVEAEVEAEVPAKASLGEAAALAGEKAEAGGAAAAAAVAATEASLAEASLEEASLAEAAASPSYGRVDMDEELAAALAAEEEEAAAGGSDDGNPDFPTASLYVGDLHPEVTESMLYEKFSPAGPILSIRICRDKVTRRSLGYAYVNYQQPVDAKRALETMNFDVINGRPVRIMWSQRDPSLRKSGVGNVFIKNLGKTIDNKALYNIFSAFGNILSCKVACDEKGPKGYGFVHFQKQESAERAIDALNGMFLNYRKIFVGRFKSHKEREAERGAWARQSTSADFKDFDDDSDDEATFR
CGUGGCG: -0.171
CUAUGUA: -0.166
GAGGCGG: 0.198
UCCGGUG: -0.215
CUGUCGA: -0.329
GCCCGGG: -0.289
CUGGUAC: -0.171
AAUAAUU: 0.374
UUAAACG: 0.0334
GGUCUGC: -0.313
CUCACGA: -0.104
UGUCUAG: -0.331
ACGAUUU: -0.0446
CGACGCC: -0.269
AUCCACC: -0.177
AGGAGUC: -0.258
CUUAUGC: -0.304
CACAAGA: 0.102
UCAUCGU: -0.393
ACCCCCC: -0.499
GGGACAU: 0.196
UAGCUGU: -0.325
GCAGGAG: 0.41
GGAAAGA: 0.436
AAUGGCU: 0.193

A few entries again (series 1):
UGCCGCCUGACCGGGCGACCCUUUUCAGUUCGGCAAACGUCGCUCCCUUCAUUUUGGGACUGAGGCUGCAGCAUUGGAACAAAAGAGCAUUAUUUCAAUUUUUCUUUCUU: 0.357
CAGCUCUUGUGCCAAGGAGGAGUGGUUGUUGUUGUUUUGUUUUGAAGACUUAAACUCUGCACAAAGAUCCUGGUUCAGCUGUGUACUAUAGGUUGGUAGGAAGUGUCGUG: 3.22
UCUCAAGCAGCAGAAUCAGCCUACGCUCCCCAGCCUCAGUGCCCCUGCCCCACACAGGUCACGCUGGCAAGGCGAUGACCAGUUUCCGAAACGCUGGAUCCCCAAGGGUA: 0.322
CACAGUUUCCUGGGGAGGCCUGAGUACACACAGGCCUGUGUCAGGAGGAGGGUCAUGGCUCCAAAUCCGCUUGCCAGUCCCGCCCUCUCUCAGGUUCAGUGGGACUGCCA: 0.219
GGCUCGGAGCUUGAAGCUCUUUGAUCCUGAAGUUUGAAUUCCCCUCUGCCUCCCGGCCUGGGCUUGUUCUCAGGUCAGCCGCUGCUUUGUUCACUAUCAGUCUGGAGUGA: 0.419
AGCAGGGAUGUGGCAGAGAGAUCUGUGUGGAUCUGGCUUCCUGCUGCUGGGGCCUGGCUGGGCCCAAAGCUCCAAGCCUCACUGCCUUCCUGGGGUCCUAAUUAACUCGG: 0.294
CCUUCAGCGCUGCAGAGCAGUAAGCUAUCCAUCCAGUGAGUGUGGCGGCUCUUUCUACAGCUGAACUCCUCCUCAGUUGAGUUUUCAGUUUCUGGCUUGCUUCUCCCUUU: 0.508
AAAUGUAGAUGCUAUGCAUUUUGAAAAUAAUCUGCAUCAGUUAGAACUGCAGAAGUUUUUUUAAUGCCACUUUAACACUAAUGCACUGACAGAUUCUAAAUAUUUUGUGA: 1.19
GUACGUCCUGCAUGCACUAACGGUGCAGAACAUGGCAUGGUGACUAGAAAGUAAAACUCCUUUUGAAGUGUCCCAAGGACUGGGUCAGUUAGAACCUGUCUGCCACUAUC: 0.429
UUACUUUUCAUUGAAUUGAAAUUUAUUUUGGAUGAAUGACUGGCAUGAACACGUCUUUGAAGUUGUGGCUGAGAAGAUGAGAGGAAUAUUUAAAUAACAUCAACAGAACA: 6.5
